# Published values collected from several papers.
# Lines come from different studies, so protocols differ.
# B1: bglA S39T (Acetivibrio thermocellus, UniProt P26208); chain MSKITFPKDFIWGSATAAYQIEGAYNEDGKGESIWDRFTHTPGNIADGHTGDVACDHYHRYEEDIKIMKEIGIKSYRFSISWPRIFPEGTGKLNQKGLDFYKRLTNLLLENGIMPAITLYHWDLPQKLQDKGGWKNRDTTDYFTEYSEVIFKNLGDIVPIWFTHNEPGVVSLLGHFLGIHAPGIKDLRTSLEVSHNLLLSHGKAVKLFREMNIDAQIGIALNLSYHYPASEKAEDIEAAELSFSLAGRWYLDPVLKGRYPENALKLYKKKGIELSFPEDDLKLISQPIDFIAFNNYSSEFIKYDPSSESGFSPANSILEKFEKTDMGWIIYPEGLYDLLMLLDRDYGKPNIVISENGAAFKDEIGSNGKIEDTKRIQYLKDYLTQAHRAIQDGVNLKAYYLWSLLDNFEWAYGYNKRFGIVHVNFDTLERKIKDSGYWYKEVIKNNGF
# B2: enzyme (Nilaparvata lugens, UniProt B3GVW3); chain MKMITLILTSFALAIIVTYLVKLSYRRYQFLRKLKGLPGPKAYPIVGDSLEMLYLKRNELMKMNSEKRELYKSIYLEWSGPFAEIHLLRPEYVEVALKSTVNITKSMAYDFLHDWLGTGLLTSSGRKWQERRKMITPAFHFGILEDFVEIFGEKSRTLVEILKKQKFGEEFDIYPMITNCALDIICESAMGTTVNAQEKKDSDYVRAVYEVSELILYRALRPWLYAEFIWKMSSHGKAFYRNLKTLHDFTNKVIVERREATSKKCSLNESDDGVGKKKAFLDLLLEATENGHELSQADIREEVDTFMFEGHDTTAASIGWAIFLLGNNPEVQDRVVEELNDIFGDSDRLATIHDLNDMKYLEMVIKETLRLYPSVPFIGRLVTEDMVVGEHLIPAGVWVNIELFSVHRCRDHYSDPEKFNPDNFLPENTKSRHPFAYVPFSAGPRNCIGQKFALLEEKTILSSILRKFRVESTEKQEDICLMMDLVLRPESGVKIKMYPREQ
# B3: enzyme A477T (Populus trichocarpa, UniProt A0A2K1ZZ60); chain ITRQYTFNITHKNFTRLCHTRSLVTVNGQFPGPRLVAREGDQVLVKVVNHVAENITIHWHGVRQLTSGWADGPAYVTQCPIQTGQAYTYNFTITGQRGTLLWHAHISWLRSSLYGPIIILPKLNESYPFKKPYKEIPILFGEWFNVDPEAVIAQALQTGAGPNVSDAYTINGLPGPLYNCSAKDTYKLKVKPGKTYLLRLINAALNDELFFSIANHTLTVVEADAVYVKPFEADTLLISPGQTTNVLLKTKPHLPNATFYMFAGPYFSGMGSFDNSTTAGVLVYKHPSSNNHLKKLPTLKPTLPPINATGFVANFTKKFRSLANAKFPANVPQTVDRKFFFTVGLGTNPCPKNTTCQGPNNNTKFAASINNVSFVLPSVALLQSYFFGQSNGVFTSDFPQNPTIPFNYTGTPPNNTMVSNGTKAVVLTFNTSVELVMQGTSIVTAESHPLHLHGFNFFVVGQGFGNYDPNKDPSNFNLVDPMERNTAGVPAGGWIAIRFLADNPGVWFMHCHLDVHTSWGLRMAWIVLDGPQPNQKIPPPPSDLPKC
# UniProt Q927X3, sequence (whole entry, looked up): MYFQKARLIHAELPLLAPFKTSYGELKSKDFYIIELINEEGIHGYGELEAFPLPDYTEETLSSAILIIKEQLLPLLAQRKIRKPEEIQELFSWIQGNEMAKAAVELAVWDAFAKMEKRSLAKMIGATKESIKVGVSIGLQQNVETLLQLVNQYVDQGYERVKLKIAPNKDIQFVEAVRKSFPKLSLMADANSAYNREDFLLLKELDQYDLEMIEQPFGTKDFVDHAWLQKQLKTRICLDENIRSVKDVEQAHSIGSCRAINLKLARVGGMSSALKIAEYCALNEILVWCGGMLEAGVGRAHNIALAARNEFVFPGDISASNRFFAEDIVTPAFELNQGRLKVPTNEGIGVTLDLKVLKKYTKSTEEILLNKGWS
# UniProt Q9ZPI1, sequence (whole entry, looked up): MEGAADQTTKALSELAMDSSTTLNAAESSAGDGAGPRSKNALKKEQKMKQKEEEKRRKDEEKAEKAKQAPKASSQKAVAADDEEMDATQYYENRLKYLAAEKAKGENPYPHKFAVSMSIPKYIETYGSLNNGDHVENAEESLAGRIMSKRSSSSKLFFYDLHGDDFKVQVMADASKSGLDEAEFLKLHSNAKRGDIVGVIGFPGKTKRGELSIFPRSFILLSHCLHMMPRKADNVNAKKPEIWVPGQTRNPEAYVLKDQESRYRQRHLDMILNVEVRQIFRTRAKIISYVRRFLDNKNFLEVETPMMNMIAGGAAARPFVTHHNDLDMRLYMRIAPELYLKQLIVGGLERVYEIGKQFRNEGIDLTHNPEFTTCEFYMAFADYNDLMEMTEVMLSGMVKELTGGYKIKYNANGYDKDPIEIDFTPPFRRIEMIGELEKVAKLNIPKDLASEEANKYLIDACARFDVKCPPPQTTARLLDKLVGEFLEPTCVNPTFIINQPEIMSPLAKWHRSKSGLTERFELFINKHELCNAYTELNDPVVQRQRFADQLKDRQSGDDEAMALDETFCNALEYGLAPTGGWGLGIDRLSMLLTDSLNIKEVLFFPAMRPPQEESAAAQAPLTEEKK
# UniProt Q9KGU7, sequence (whole entry, looked up): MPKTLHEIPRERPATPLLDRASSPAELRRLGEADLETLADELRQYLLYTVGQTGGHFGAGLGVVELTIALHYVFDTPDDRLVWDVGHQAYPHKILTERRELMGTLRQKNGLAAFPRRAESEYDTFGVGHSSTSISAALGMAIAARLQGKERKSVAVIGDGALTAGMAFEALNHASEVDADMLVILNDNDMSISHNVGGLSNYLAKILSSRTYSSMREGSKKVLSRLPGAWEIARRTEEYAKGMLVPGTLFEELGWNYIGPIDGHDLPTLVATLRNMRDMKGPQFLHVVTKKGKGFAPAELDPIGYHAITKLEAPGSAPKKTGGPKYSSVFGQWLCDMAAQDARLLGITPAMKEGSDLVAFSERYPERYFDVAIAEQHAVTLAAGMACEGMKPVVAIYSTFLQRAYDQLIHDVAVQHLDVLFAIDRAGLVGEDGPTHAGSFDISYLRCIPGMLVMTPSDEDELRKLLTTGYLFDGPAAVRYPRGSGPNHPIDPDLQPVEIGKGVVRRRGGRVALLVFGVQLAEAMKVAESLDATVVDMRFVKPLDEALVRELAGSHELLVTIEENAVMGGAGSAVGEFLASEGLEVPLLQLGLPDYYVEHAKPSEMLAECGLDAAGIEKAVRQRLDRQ
# UniProt O95551, sequence (whole entry, looked up): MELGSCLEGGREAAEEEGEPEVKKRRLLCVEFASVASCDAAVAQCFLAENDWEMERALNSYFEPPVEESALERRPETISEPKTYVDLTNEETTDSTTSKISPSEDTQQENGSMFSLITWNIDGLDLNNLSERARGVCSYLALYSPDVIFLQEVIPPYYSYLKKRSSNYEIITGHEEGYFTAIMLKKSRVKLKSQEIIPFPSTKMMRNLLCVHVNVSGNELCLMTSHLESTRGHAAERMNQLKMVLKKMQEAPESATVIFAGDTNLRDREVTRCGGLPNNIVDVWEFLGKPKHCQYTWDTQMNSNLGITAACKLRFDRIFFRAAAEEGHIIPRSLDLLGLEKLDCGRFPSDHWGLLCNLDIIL
Molecule,target or system,test,system,setting,scale,quantity,result
nfsB K14R (Escherichia coli),NC(=O)N/N=C/c1ccc([N+](=O)[O-])o1,steady-state kinetics,,"pH 7, 37 °C",,Km,40 µM
ALS1 S627I/W548L (Oryza sativa),CC(=O)C(=O)O,steady-state kinetics,,"pH 7.5, 37 °C, together with: FAD, MgCl2, TPP",,Km,96000 µM
B1 (bglA S39T),O=[N+]([O-])c1ccc(O[C@@H]2O[C@H](CO)[C@@H](O)[C@H](O)[C@H]2O)cc1,steady-state kinetics,,"pH 5.5, 60 °C",,Km,8020 µM
"enzyme (Arabidopsis thaliana, UniProt Q9ZPI1)",NCCCC[C@H](N)C(=O)O,steady-state kinetics,,"pH 7.8, 37 °C",,Km,24.3 µM
B2 (enzyme),COc1ccc([C@@H]2CC(=O)c3c(O)cc(O)cc3O2)cc1O,steady-state kinetics,,not purified,,Km,84.7 µM
"dxs (Pseudomonas aeruginosa, UniProt Q9KGU7)",CC(=O)C(=O)O,steady-state kinetics,,"pH 8, 25 °C, apparent",,Km,66 µM
B3 (enzyme A477T),COc1cc(/C=C/CO)ccc1O,steady-state kinetics,,27 °C,,Km,237 µM
rCR L34A (Lodderomyces parapsilosis),CC(=O)c1ccc(Cl)cc1,steady-state kinetics,,"pH 7, 30 °C, together with: NADH 0.5 mM",,Km,360 µM
insulin human,,measured: KCNMA1 mRNA,"uninfected mouse, brain","i.p., dose not given",reference: PBS,fold change,1.23
"TDP2 (Homo sapiens, UniProt O95551)",Cc1cn([C@H]2C[C@H](O)[C@@H](COP(=O)(O)Oc3ccc([N+](=O)[O-])cc3)O2)c(=O)[nH]c1=O,steady-state kinetics,,,,Km,54000 µM
"enzyme (Listeria innocua, UniProt Q927X3)",O=C(O)CCC(=O)C1=CC=C[C@@H](O)[C@@H]1C(=O)O,steady-state kinetics,,"pH 8, 25 °C",,Km,170 µM
